Measured values from different studies.
Each numbered part is a random draw from the data of one study; scales do not carry over between parts. “And” joins repeats or separate records; there may be more than shown.
UniProt P42681, sequence (whole entry, looked up): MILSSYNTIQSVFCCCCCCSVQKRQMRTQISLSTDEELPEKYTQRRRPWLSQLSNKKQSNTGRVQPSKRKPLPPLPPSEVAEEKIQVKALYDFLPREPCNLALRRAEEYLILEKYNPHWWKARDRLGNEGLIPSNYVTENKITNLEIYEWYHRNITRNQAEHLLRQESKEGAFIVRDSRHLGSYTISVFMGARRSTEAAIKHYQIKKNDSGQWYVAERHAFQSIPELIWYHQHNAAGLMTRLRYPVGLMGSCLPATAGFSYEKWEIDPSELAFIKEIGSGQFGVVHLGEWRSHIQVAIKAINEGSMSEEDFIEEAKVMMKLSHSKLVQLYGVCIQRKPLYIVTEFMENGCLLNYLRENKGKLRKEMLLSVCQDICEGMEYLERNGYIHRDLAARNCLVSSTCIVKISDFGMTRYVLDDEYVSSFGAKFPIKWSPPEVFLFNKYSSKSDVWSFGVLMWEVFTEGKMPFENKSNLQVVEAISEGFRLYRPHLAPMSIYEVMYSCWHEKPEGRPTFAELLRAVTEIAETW
UniProt P35968, sequence (whole entry, looked up): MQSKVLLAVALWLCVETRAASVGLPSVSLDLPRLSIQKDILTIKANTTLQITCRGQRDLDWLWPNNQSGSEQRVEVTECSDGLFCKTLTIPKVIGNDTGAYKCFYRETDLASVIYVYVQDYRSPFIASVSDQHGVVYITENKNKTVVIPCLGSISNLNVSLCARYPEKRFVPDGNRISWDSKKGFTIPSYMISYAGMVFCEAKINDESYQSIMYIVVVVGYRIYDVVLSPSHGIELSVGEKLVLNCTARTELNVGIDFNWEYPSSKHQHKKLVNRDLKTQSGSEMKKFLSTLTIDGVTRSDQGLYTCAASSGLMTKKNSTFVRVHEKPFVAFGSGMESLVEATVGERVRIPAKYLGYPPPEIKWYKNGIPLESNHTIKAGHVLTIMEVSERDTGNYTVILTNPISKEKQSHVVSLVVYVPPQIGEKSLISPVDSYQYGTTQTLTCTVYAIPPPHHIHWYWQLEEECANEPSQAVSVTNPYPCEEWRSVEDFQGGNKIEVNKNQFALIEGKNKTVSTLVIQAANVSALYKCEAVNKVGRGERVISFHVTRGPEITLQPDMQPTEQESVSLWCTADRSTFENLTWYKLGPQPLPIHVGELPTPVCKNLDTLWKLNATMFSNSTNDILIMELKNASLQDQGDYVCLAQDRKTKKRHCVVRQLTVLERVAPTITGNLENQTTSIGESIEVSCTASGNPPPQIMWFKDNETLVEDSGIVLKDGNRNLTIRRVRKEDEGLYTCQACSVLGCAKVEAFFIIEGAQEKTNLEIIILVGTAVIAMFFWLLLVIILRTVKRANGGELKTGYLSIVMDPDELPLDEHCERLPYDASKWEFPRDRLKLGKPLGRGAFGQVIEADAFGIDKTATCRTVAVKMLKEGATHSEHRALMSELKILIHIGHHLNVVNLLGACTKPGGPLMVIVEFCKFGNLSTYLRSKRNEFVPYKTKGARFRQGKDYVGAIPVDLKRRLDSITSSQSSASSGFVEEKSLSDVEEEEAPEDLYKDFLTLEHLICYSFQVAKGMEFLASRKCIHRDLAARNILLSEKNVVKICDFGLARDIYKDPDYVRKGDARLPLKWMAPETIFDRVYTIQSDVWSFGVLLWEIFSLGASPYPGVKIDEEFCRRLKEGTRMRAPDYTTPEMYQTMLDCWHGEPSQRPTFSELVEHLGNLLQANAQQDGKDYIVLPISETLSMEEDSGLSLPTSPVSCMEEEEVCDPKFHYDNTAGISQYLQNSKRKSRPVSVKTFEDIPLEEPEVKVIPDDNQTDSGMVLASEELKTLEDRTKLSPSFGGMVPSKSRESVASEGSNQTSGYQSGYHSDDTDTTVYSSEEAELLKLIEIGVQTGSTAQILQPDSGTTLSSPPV
UniProt Q16539, sequence (whole entry, looked up): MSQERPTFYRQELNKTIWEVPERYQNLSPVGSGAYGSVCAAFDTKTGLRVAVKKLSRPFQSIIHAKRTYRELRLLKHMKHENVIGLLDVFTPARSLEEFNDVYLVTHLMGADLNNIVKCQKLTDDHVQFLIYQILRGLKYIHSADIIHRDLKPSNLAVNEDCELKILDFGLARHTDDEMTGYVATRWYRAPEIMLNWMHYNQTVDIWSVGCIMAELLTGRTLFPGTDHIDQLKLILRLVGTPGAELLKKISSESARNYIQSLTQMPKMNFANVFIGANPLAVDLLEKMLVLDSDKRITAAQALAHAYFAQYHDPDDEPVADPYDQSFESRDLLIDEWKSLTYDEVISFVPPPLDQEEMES

Study 1
Compound: CCC(=O)N[C@@H]1CC[C@H](C(=O)N(C)c2ccc(-c3nc4ccccc4o3)cc2)C1
Observed: cell-free assay
Technique: competition with immobilised ligand
Concentration: 1 µM
| target | remaining binding [%] |
| --- | --- |
| Mitogen-activated protein kinase kinase kinase 20 (MAP3K20, Homo sapiens, UniProt Q9NYL2) | 78 |
| Phosphatidylinositol 4,5-bisphosphate 3-kinase catalytic subunit alpha isoform (PIK3CA, Homo sapiens, UniProt P42336, I800L) | 100 |
| Bone morphogenetic protein receptor type-2 (BMPR2, Homo sapiens, UniProt Q13873) | 100 |
| 1-phosphatidylinositol 3-phosphate 5-kinase (PIKFYVE, Homo sapiens, UniProt Q9Y2I7) | 93 |
| Serine/threonine-protein kinase D1 (PRKD1, Homo sapiens, UniProt Q15139) | 98 |
| Phosphatidylinositol 3-kinase C2 domain-containing subunit gamma (PIK3C2G, Homo sapiens, UniProt O75747) | 57 |
| Casein kinase II subunit alpha' (CSNK2A2, Homo sapiens, UniProt P19784) | 100 |
| Homeodomain-interacting protein kinase 1 (HIPK1, Homo sapiens, UniProt Q86Z02) | 87 |
| Serine/threonine-protein kinase PLK3 (PLK3, Homo sapiens, UniProt Q9H4B4) | 84 |
| Myosin-IIIa (MYO3A, Homo sapiens, UniProt Q8NEV4) | 100 |
| Epidermal growth factor receptor (EGFR, Homo sapiens, UniProt P00533, G719C) | 100 |

Study 2
SMILES: O=c1c(-c2ccc(F)cc2)c(-c2ccncc2)[nH]n1-c1ccc(Cl)cc1
Observed: enzyme activity
Action: inhibitor
Concentration: 0.5 µM
Baseline: control
| target | remaining activity [%] |
| --- | --- |
| Tyrosine-protein kinase TXK (TXK, Homo sapiens, UniProt P42681) | 94.4 |
| Mitogen-activated protein kinase 14 (MAPK14, Homo sapiens, UniProt Q16539) | 11.2 |
| Rho-associated protein kinase 1 (ROCK1, Homo sapiens, UniProt Q13464) | 109 |
| Vascular endothelial growth factor receptor 2 (KDR, Homo sapiens, UniProt P35968) | 90.6 |
| Mitogen-activated protein kinase 11 (MAPK11, Homo sapiens, UniProt Q15759) | 55.9 |
| Serine/threonine-protein kinase PAK 3 (PAK3, Homo sapiens, UniProt O75914) | 98.3 |
| Calcium/calmodulin-dependent protein kinase type IV (CAMK4, Homo sapiens, UniProt Q16566) | 104 |
| G protein-coupled receptor kinase 4 (GRK4, Homo sapiens, UniProt P32298) | 97.9 |
| Cyclin-dependent kinase 9, with cyclin K (CDK9, Homo sapiens, UniProt P50750) | 93.4 |
| Serine/threonine-protein kinase MRCK beta (CDC42BPB, Homo sapiens, UniProt Q9Y5S2) | 103 |
| Dual specificity protein kinase CLK3 (CLK3, Homo sapiens, UniProt P49761) | 88.7 |
| Mitogen-activated protein kinase 1 (MAPK1, Homo sapiens, UniProt P28482) | 77.3 |
| Dual specificity mitogen-activated protein kinase kinase 1 (MAP2K1, Homo sapiens, UniProt Q02750) | 70.1 |
| Serine/threonine-protein kinase DCLK2 (DCLK2, Homo sapiens, UniProt Q8N568) | 99.9 |

Study 3
Cell line: A-375
Concentration: 100 µM
Time: 18 h
| SMILES | viability |
| --- | --- |
| COC(=O)CCc1ccc(OCC(O)CNC(C)C)cc1 (stereo not drawn) | 100% |
| COc1cc(C(=O)N2CCOCC2)cc(OC)c1OC | 107% |
| CC[C@H](C)[C@H](N)C(=O)O | 97.5% |
| Cc1ncc([N+](=O)[O-])n1CCO | 95% |
| CC1(C)S[C@@H]2[C@H](NC(=O)[C@H](N)c3ccccc3)C(=O)N2[C@H]1C(=O)O | 95.6% and 107% |
| OCCN1CCN(CC/C=C2/c3ccccc3Sc3ccc(C(F)(F)F)cc32)CC1 | 7.87% |
| Cc1cccc(Nc2ccncc2S(=O)(=O)NC(=O)NC(C)C)c1 | 102% |
| COc1cc(CNC(=O)CCCC/C=C/C(C)C)ccc1O | 36.9% |

Study 4
Target: DNA polymerase theta, ATPase domain (POLQ, Homo sapiens, UniProt O75417)
UniProt O75417, sequence (whole entry, unmodified, looked up): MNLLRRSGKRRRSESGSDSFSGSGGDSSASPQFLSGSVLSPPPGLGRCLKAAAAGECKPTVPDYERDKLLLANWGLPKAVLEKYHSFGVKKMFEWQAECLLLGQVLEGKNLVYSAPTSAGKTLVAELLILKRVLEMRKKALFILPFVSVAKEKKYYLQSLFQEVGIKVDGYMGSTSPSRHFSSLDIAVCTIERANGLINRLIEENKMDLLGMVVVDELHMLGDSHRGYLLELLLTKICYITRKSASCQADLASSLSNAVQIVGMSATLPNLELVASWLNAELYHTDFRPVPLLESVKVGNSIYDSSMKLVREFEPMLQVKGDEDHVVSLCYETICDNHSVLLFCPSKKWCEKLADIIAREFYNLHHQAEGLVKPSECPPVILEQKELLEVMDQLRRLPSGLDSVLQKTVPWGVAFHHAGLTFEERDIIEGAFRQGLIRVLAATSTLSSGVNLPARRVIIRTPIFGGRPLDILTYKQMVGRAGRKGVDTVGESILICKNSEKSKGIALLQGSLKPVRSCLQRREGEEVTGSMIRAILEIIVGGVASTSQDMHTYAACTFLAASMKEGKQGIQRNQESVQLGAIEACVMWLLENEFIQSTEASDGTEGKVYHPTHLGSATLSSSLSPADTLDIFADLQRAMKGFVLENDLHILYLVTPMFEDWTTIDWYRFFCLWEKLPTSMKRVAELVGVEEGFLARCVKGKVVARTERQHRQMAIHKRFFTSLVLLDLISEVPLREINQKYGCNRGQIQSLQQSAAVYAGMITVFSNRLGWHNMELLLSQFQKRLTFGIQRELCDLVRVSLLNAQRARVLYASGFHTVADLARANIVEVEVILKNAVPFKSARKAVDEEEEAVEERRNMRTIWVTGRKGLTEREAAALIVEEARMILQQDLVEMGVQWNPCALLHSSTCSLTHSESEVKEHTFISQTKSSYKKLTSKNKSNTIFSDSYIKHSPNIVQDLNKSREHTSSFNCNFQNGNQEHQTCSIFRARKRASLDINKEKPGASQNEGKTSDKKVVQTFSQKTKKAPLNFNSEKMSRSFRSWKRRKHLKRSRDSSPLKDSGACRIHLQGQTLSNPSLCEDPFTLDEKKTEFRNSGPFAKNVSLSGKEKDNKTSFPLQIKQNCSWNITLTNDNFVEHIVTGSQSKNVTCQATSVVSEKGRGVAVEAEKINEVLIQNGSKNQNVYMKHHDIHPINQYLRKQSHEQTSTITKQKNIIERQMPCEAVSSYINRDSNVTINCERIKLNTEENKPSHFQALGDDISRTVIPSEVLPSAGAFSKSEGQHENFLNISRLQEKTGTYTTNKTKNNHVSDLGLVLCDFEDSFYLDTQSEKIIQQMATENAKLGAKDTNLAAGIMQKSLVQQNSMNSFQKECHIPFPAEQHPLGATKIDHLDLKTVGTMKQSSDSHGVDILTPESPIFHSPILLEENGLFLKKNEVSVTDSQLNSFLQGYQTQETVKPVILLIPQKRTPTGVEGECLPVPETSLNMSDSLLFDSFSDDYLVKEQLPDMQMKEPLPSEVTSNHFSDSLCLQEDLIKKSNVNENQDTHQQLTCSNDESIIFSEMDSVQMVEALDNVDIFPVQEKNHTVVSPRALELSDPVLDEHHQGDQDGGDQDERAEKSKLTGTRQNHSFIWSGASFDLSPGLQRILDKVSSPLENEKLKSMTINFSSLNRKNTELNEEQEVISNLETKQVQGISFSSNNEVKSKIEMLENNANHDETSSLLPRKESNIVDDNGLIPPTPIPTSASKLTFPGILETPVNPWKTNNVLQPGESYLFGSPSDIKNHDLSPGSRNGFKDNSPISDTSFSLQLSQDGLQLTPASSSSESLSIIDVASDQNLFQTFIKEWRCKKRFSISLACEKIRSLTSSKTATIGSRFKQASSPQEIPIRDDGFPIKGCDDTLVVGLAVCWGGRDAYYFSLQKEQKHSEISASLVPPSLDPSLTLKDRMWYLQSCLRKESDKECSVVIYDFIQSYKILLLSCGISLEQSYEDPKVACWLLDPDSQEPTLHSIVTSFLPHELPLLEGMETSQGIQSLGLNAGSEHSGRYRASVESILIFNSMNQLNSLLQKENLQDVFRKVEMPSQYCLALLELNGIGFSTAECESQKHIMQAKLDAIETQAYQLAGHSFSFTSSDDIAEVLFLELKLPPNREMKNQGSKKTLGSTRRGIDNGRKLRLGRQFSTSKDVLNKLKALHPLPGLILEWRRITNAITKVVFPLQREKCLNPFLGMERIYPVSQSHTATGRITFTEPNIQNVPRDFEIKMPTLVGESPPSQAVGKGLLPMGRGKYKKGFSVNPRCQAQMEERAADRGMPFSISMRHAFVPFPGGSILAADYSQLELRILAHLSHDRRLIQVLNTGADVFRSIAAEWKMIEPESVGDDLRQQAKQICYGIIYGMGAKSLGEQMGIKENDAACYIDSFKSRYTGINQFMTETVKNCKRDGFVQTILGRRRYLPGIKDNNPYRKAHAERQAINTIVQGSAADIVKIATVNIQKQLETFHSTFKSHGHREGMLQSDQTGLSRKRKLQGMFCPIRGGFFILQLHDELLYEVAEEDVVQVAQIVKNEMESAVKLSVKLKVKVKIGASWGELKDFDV
Observed: enzyme activity
Action: inhibitor
Concentration: 77 µM
Baseline: untreated
| Structure (SMILES) | remaining activity [%] |
| --- | --- |
| Cc1cc2nc3c(=O)[nH]c(=O)nc-3n(C[C@H](O)[C@H](O)[C@H](O)CO)c2cc1C | 92.8 |
| CC(C)OC(=O)C(C(=O)OC(C)C)=C1SC=CS1 | 96.6 |
| O=c1[nH]c2ccccc2c2ccccc12 | 107 |
| CC(C(=O)O)c1ccc(C(=O)c2ccccc2)s1 (stereo not drawn) | 91.6 |
| Nc1ccn([C@@H]2O[C@H](CO)[C@@H](O)[C@H]2O)c(=O)n1 | 80.7 |
| CCC(=O)OCC(=O)[C@@]1(OC(=O)CC)[C@H](C)C[C@H]2[C@H]3[C@H]([C@@H](O)C[C@@]21C)[C@@]1(C)C=CC(=O)C=C1C[C@H]3Cl | 96 |

Repeated from above (study 1):
| target | remaining binding [%] |
| --- | --- |
| Serine/threonine-protein kinase D1 (PRKD1, Homo sapiens, UniProt Q15139) | 98 |
| Phosphatidylinositol 3-kinase C2 domain-containing subunit gamma (PIK3C2G, Homo sapiens, UniProt O75747) | 57 |
| Phosphatidylinositol 4,5-bisphosphate 3-kinase catalytic subunit alpha isoform (PIK3CA, Homo sapiens, UniProt P42336, I800L) | 100 |
| 1-phosphatidylinositol 3-phosphate 5-kinase (PIKFYVE, Homo sapiens, UniProt Q9Y2I7) | 93 |
